# Assay results gathered from unrelated publications.
# Every numbered part comes from another study and shows a few of its results, in no order. Changes are numbered by the printed parent chain.

# Set 1
# Target: CCND2, cyclin fold, Cln2 fusion (human)
# Technique: yeast growth competition, sequencing
# Medium: yeast
# Notes: weak parent motif
# Reference: not given
# Direction: higher = stronger binding
# Parent: SLBP docking peptide (human); ARYKRKLLINDFG
Variant,normalised enrichment score
R2D,0.59
N10R,-0.0904
R5A L7A,0.23
R5F,0.221
F12W,0.00263
A1V,0.426

# Set 2
# Target: Interferon regulatory factor 7, full length, phosphomimetic (IRF7, Homo sapiens, UniProt Q92985, residues 1-503, S471D/S472D/S475D/S476D/S477D/S483D/S484D/S487D)
# Technique: protein-binding microarray
# Molecule type: double-stranded DNA, one strand shown
# Medium: in vitro
# Tested at: 2200 nM top
# Notes: 60-bp whole probe
# Together with: salmon DNA 0.4 mg/ml
# Reference: random background probes
# Direction: higher = stronger binding
# All sequences stand within: GCCTAGCAC … GTCTTGATTCGCTTGACGCTGCTG
# Construct (chain): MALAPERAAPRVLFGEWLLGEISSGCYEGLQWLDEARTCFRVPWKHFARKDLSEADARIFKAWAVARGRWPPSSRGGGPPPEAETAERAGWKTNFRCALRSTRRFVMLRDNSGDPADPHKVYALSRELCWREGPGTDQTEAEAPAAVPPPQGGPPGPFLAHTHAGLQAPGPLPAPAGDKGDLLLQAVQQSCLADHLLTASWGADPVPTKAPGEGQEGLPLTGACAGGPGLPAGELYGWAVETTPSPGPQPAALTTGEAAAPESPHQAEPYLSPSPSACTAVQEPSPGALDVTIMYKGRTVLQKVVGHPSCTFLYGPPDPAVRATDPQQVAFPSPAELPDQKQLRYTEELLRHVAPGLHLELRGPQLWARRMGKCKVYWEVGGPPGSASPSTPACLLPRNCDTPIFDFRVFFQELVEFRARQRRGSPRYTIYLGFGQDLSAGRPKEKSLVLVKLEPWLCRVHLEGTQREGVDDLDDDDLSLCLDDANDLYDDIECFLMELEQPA
Sequence,fitted relative affinity
TCAAAGATTGCCGTTTCCACTGTGCTA,0.502 z-score
TCACCTCTCTTTCCAACACTGTGCTAG,2.49 z-score
GACGATATCAGTTTCGTGACGTGCTAG,2.64 z-score
TCATATTTATTTTTACAACTGTGCTAG,0.928 z-score
TTAGGACTGGGGTAGCGGTTAGTGCTA,-1.03 z-score
TCAGGAGTCAACTCTCTAACTGTGCTA,-0.527 z-score
TTAGATGTCGGGTTTCGATTAGTGCTA,2.5 z-score
TTAGGACTGCTTATCCTATAGTGCTAG,0.282 z-score
GACGAACAGAGTTTCGAGACGTGCTAG,1.81 z-score

# Set 3
# Target: Centromere-binding protein 1, full length, His-tagged (CBF1, Saccharomyces cerevisiae, UniProt P17106, residues 1-351)
# Chain of UniProt P17106 (whole entry, looked up): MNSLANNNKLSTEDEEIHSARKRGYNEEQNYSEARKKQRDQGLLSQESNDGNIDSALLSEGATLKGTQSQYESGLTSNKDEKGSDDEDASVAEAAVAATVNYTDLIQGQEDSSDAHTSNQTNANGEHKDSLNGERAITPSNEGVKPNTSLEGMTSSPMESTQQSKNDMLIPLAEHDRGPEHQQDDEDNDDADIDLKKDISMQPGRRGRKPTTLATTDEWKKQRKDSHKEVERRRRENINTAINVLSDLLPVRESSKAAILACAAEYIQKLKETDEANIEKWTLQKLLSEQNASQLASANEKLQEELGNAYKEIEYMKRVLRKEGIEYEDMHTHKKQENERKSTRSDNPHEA
# Technique: competition protein-binding microarray
# Molecule type: double-stranded DNA, one strand shown
# Medium: in vitro
# Tested at: 2 µM
# Notes: whole 60-bp probe, lowest competitor level
# Together with: Pho4 competitor, 0.05 µM
# Direction: higher = stronger binding
# All sequences stand within: … GTCTTGATTCGCTTGACGCTGCTG
Sequence,fluorescence intensity [a.u.]
TCGGCTTGCAGATCGCACGCACTCAGAGTACGAAAT,78.4
GATAGTGCTGTCTGGGGCGTGCGATATGCAAAGCTT,58.5
GGTTCTTCGTCTTTGCACGTGGTCGAAGAGGAACCT,2090
TGCGCAACAACTTTTCACGTGTGCTTATGTCTAGAA,544
AGTAGTTTAAAATTTCACGTGTACTTTCCCTGTTTT,968
CGTCCTAGTGATTTTCACGTGGATTCCATGAGGAAG,619
TGCTATCCCGGCGAGCCCGTGGCCGAGGACCTCGCT,42

# Single results of other studies
Molecule,target,test,test system,setting,how to read,measurement,value
"PhoQ, residues 284 288 289 292 302 303 SLSLLA","PhoP, residues 12 14 15 18 19 IFFTR (Escherichia coli, UniProt P23836)","Sort-seq, refers to: YFP reporter",E. coli,"PhoQ-PhoP variant library, together with: 10 µM Mg2+","reference: high Mg2+ state, higher = stronger signaling",fold induction,9.81

# Repeated from above (set 1):
Variant,normalised enrichment score
F12W,0.00263
A1V,0.426
